{"data": "Experimental data from different studies", "Fibroin-modulator-binding protein-1": "Fibroin-modulator-binding protein-1 99-193 (Bombyx mori, UniProt Q5FBS0)", "B1": "enzyme (Myxococcus xanthus, UniProt Q1D964); chain MTDLSAKNPKDTEVVMTQLILPPDANNLDAAFGGKVMQWIDICGAVAAQRHCRQVVVTASMDDLHFHAPIKVGWVALLHGRVLAAFRTSMEVGVTVHAENPLTGERHLTTSALLTFVAIDKDGQRVPVPPLLMETDADRMAFQEAQTRRTLRLARQKENQSWLKVMTPIAGA", "B2": "enzyme (Ectocarpus siliculosus, UniProt D7FYY3); chain KTASLATVSSLGIDKATGITKPSTVHHNLPYPQVFEHETKNKEGESTANGTFCVSTGQFTGRSPKDKYFVQQAPSDKTLDWGKINVGVAPKVFENIYNKAVKHYNDNVDSMYVFDGYCGTSPKSRKNVRIITELAWQHHFAKNMFIRPETEAETAGFKPDFTIINACKVVNDDYKELGLNSEVAVVFNVEERKAVITGTWYGGEMKKGIFSMMNYWLPLDGVMAMHCSANKGKNGDTALFFGLSGTGKTTLSADPERYLIGDDEHGWDDDGIFNFEGGCYAKTINLSHENEPEIYDAIKRDALLENVVIKDNGEPDYTDVSKTENTRVSYPIYHIDNYEPSGMGGHPNSVIFLTCDAFGILPPVSRLSAGQAMYHFLSGYTAKVAGTERGVTEPTPNFSAGFGAAFLTLHPTMYADLLQKKLAKHGTQCYLINTGWTGGGYGVGKRMSIKATRACVDAVLDGSIGKTTFTPDPVFGFEVPAELPGVPAKVLNPREAWSDKKGYDATRTKLAGMFKDNFTKFVKPGVTDYTSYGPK", "B3": "ART1 (Homo sapiens, UniProt P52961); chain QSHPITRRDLFSQEIQLDMALASFDDQYAGCAAAMTAALPDLNHTEFQANQVYADSWTLASSQWQERQARWPEWSLSPTRPSPPPLGFRDEHGVALLAYTANSPLHKEFNAAVREAGRSRAHYLHHFSFKTLHFLLTEALQLLGSGQRPPRCHQVFRGVHGLRFRPAGPRATVRLGGFASASLKHVAAQQFGEDTFFGIWTCLGAPIKGYSFFPGEEEVLIPPFETFQVINASRLAQGPARIYLRALGKHSTYNCEYIKDKKCKSGPCHLDNS", "B4": "enzyme (Plasmodium falciparum, UniProt C0H484); chain MVREAHELLDGSRPIPIDKITYELSQNIILAFDNHENINNKDIQIEIEGRVGLVIDKNKNRIKLPINTDAIIENNYSDFQAGIDRESFEYLLDYFHNMTLKKRLSIRNNDNNNNNMDNNNNNMDNNNNIHIHNSGNNTNQTHSYDKNADDNKPTCNYSYDKKNACIYDFLELKTTKSIDKYYVIKNNNSRIRTTTYLNDDNKQETESMMIQSLQKDNLNIWNVYTGNNYDYFDDDEEDDDDDYNNNNNNNNGDTGTKTNIATNNTHGLTTSKSQHIYNNLVDKNDSIDYRISINIEYTKPISKLYLSKNTPVHERLKERTTFINTYLGLQVDMTKIKTKNNELYEVEIEIPSKTIFKAMSNLRNKKDSNYLHFICSNLVNNIRGICSQLNVFKKSKHMLKNTMITKLNNNSNNQNNLSLLPNHPNDDTISSKEKEKFKKYIHSVLPIVGDY", "B5": "enzyme S252E (Schizosaccharomyces pombe, UniProt P78804); chain MSTPYEPEFQQAYKEIVGSIESSKLFEVHPELKRVLPIISIPERVLEFRVTWEDDKGNCRVNTGYRVQFNSALGPYKGGLRFHPSVNLSILKFLGFEQIFKNALTGLPMGGGKGGSDFDPKGKSDNEIRRFSQAFMRQLFRYIGPQTDVPAGDIGVTGFVVMHMFGEYKRLRNEYSGVVTGKHMLTGGSNIRPEATGYGVVYYVKHMIEHRTKGAETLKGKRVAISGSGNVAQYAALKCIQEGAIVKSISDEKGVLIAKTAEGLVPEEIHEIMALKEKRASIADSASLCKKHHYIAGARPWTNVGEIDIALPCATQNEVSGEEAAALIKQGCRYVAEGSNMGSSAEAVEVFEKSRASGEGCWLAPGKAANAGGVAVSGLEMAQNAQFSTWTHAEVDAKLAGIMQNIFEQSTDVASKYCDSGSNNIPSLVDGANIAGFLKVATAMQAVGDWW", "B6": "enzyme (Pseudomonas putida, UniProt Q88KZ0); chain MWKVPVTQKPDQCLGEWIDREALAEAMIPLIGQLYRNNNVVSSIYGRSLINRSVISILKAHRFARHRQTDETELSVHETFPLLKAMSELKLGAASVDLGKLANKFKQEGNGRTAEQFVREELADVVGQQNASARKGTDVVLYGFGRIGRLLARILIEKTGGGDGLRLRAIVVRKGAENDLVKRASLLRRDSVHGPFDGTITIDEANNTITANGNLIQVIYAKSPSEVDYTQYGIDNALIVDNTGVWRDADGLGQHLACPGAARVILTAPGKGALKNIVHGINHGDITADDKIISAASCTTNAIVPVLKAINDQYGIVNGHVETVHSFTNDQNLIDNFHKGSRRGRAAPLNMVITETGAATAAAKALPVLKGKLTGNAIRVPTPNVSMAILNLNLEKATTRDEINEYLRQTAMHSELHKQIDYVASQEVVSTDFVGSRHAGVVDAEATIANDNRVVLYVWYDNEFGYSCQVVRVMEDMAGVNPPAFPR", "note": "± marks the error that the study gave.", "chain of UniProt A6NK06 (whole entry, looked up)": "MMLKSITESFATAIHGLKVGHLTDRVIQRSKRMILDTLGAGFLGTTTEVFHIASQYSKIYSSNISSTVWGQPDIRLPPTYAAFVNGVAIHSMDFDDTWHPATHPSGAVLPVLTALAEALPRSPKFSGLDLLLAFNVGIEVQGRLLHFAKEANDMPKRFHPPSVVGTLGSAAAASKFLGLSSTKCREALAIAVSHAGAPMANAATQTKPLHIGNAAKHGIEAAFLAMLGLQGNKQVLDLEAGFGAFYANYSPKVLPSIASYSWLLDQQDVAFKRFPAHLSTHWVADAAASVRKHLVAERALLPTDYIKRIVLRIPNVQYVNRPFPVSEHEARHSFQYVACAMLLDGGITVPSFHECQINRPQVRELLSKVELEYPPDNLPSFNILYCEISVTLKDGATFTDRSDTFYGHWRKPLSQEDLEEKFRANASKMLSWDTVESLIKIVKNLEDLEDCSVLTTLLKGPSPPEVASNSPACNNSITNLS", "chain of UniProt P0AGF6 (whole entry, looked up)": "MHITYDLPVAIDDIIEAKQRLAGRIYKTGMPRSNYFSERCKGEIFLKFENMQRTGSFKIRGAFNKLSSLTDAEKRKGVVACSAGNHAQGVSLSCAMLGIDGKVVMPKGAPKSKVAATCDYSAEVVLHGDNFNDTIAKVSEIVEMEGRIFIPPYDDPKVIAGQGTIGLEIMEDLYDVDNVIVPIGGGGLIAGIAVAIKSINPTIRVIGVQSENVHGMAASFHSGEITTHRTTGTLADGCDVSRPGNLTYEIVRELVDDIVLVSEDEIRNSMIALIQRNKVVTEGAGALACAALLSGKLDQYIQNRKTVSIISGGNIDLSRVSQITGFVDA", "chain of UniProt P0A9A6 (whole entry, looked up)": "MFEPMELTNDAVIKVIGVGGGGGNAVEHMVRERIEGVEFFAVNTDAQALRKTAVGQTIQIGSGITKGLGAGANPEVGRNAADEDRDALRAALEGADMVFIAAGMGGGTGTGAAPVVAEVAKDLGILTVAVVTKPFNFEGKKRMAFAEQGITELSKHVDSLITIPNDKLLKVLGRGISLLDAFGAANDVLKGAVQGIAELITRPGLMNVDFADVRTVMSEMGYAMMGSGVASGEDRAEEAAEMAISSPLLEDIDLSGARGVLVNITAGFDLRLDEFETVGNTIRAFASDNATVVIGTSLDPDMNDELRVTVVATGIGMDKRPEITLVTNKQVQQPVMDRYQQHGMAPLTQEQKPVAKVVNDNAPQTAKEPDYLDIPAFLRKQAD"}
{"Molecule": "B1 (enzyme)", "target or system": "CC(=O)SCCNC(=O)CCNC(=O)[C@H](O)C(C)(C)COP(=O)(O)OP(=O)(O)OC[C@H]1O[C@@H](n2cnc3c(N)ncnc32)[C@H](O)[C@@H]1OP(=O)(O)O", "test": "steady-state kinetics", "setting": "pH 8, 25 °C", "measurement": "Km", "value": "180 µM"}
{"Molecule": "enzyme (Escherichia coli, UniProt P0AGF6)", "target or system": "C[C@@H](O)[C@H](N)C(=O)O", "test": "steady-state kinetics", "setting": "pH 7.5, 23 °C, apparent, not purified, together with: PLP 0.1 mM, L-Thr", "measurement": "Km", "value": "97500 µM"}
{"Molecule": "ICLTSTVQLIM", "target or system": "HLA class I histocompatibility antigen, A alpha chain, allele A*01:01 (Homo sapiens, UniProt P04439)", "test": "conformational ELISA", "test system": "peptide", "setting": "concentration not given", "scale": "baseline: positive control peptide, direction not given", "measurement": "binding score", "value": "5.5%"}
{"Molecule": "B2 (enzyme)", "target or system": "C=C(OP(=O)(O)O)C(=O)O", "test": "steady-state kinetics", "setting": "pH 5.5, 25 °C, together with: 2 mM ADP", "measurement": "Km", "value": "620 µM"}
{"Molecule": "ACOD1 (Homo sapiens, UniProt A6NK06)", "target or system": "O=C(O)/C=C(/CC(=O)O)C(=O)O", "test": "steady-state kinetics", "measurement": "Km", "value": "1080 µM"}
{"Molecule": "ftsZ (Escherichia coli, UniProt P0A9A6)", "target or system": "Nc1nc2c(ncn2[C@@H]2O[C@H](COP(=O)(O)OP(=O)(O)OP(=O)(O)O)[C@@H](O)[C@H]2O)c(=O)[nH]1", "test": "steady-state kinetics", "setting": "pH 6.5, 30 °C, together with: MgCl2 5 mM", "measurement": "Km", "value": "34 µM"}
{"Molecule": "ACGCACGCACGC (dsDNA)", "target or system": "Fibroin-modulator-binding protein-1", "test": "ITC", "test system": "double-stranded DNA, one strand shown", "measurement": "Kd", "value": "6.83 µM"}
{"Molecule": "B3 (ART1)", "target or system": "N=C(N)NCCC[C@H](N)C(=O)O", "test": "steady-state kinetics", "setting": "pH 7.5, 25 °C, HEPES 50 mM, together with: saturating NAD+", "measurement": "Km", "value": "4100 µM"}
{"Molecule": "IMNSLSLFA", "target or system": "HLA class I histocompatibility antigen, A alpha chain, allele A*02:01 (Homo sapiens, UniProt P04439)", "test": "peptide-MHC stability, brefeldin A chase", "test system": "peptide, T2 cells", "measurement": "complex half-life", "value": "3.4 h"}
{"Molecule": "B4 (enzyme)", "target or system": "Nc1ncnc2c1ncn2[C@@H]1O[C@H](COP(=O)(O)OP(=O)(O)OP(=O)(O)O)[C@@H](O)[C@H]1O", "test": "steady-state kinetics", "setting": "together with: Mn2+", "measurement": "Km", "value": "12 µM"}
{"Molecule": "B5 (enzyme S252E)", "target or system": "NC(=O)c1ccc[n+]([C@@H]2O[C@H](COP(=O)(O)OP(=O)(O)OC[C@H]3O[C@@H](n4cnc5c(N)ncnc54)[C@H](O)[C@@H]3O)[C@@H](O)[C@H]2O)c1", "test": "steady-state kinetics", "setting": "pH 7, 30 °C, apparent", "measurement": "Km", "value": "1900 µM"}
{"Molecule": "gdh N97F (Bacillus subtilis)", "target or system": "NC(=O)c1ccc[n+]([C@@H]2O[C@H](COP(=O)(O)OP(=O)(O)OC[C@H]3O[C@@H](n4cnc5c(N)ncnc54)[C@H](O)[C@@H]3O)[C@@H](O)[C@H]2O)c1", "test": "steady-state kinetics", "setting": "pH 8, 55 °C", "measurement": "Km", "value": "560 µM"}
{"Molecule": "B6 (enzyme)", "target or system": "O=C[C@H](O)COP(=O)(O)O", "test": "steady-state kinetics", "setting": "together with: NADP+", "measurement": "Km", "value": "780 µM"}
{"Molecule": "CAAACAAACAAA (dsDNA)", "target or system": "Fibroin-modulator-binding protein-1", "test": "ITC", "test system": "double-stranded DNA, one strand shown", "measurement": "Kd", "value": "4.61 ± 0.463 µM"}
{"Molecule": "CCT4", "test": "co-immunoprecipitation", "test system": "human RBC membrane", "setting": "DMTMM crosslinker, unit not given, together with: Band 3 peptide 1-56 bait", "scale": "baseline: negative control", "measurement": "co-IP enrichment", "value": 3.28}
{"note": "Repeated from above:"}
{"Molecule": "ftsZ (Escherichia coli, UniProt P0A9A6)", "target or system": "Nc1nc2c(ncn2[C@@H]2O[C@H](COP(=O)(O)OP(=O)(O)OP(=O)(O)O)[C@@H](O)[C@H]2O)c(=O)[nH]1", "test": "steady-state kinetics", "setting": "pH 6.5, 30 °C, together with: MgCl2 5 mM", "measurement": "Km", "value": "34 µM"}
{"Molecule": "ACGCACGCACGC (dsDNA)", "target or system": "Fibroin-modulator-binding protein-1", "test": "ITC", "test system": "double-stranded DNA, one strand shown", "measurement": "Kd", "value": "6.83 µM"}
